Published values gathered from unrelated publications.
Numbered parts are unrelated; each lists some results of a single study.

Set 1 — technique: competition protein-binding microarray; molecule type: double-stranded DNA, one strand shown; matrix: in vitro; tested at: 2 µM; with: Cbf1 competitor, 0.05 µM; direction: higher = stronger binding
Target: Phosphate system positive regulatory protein PHO4, full length, GST-tagged (PHO4, Saccharomyces cerevisiae, UniProt P07270, residues 1-312)
Setting: whole 60-bp probe, lowest competitor level
Target sequence (chain): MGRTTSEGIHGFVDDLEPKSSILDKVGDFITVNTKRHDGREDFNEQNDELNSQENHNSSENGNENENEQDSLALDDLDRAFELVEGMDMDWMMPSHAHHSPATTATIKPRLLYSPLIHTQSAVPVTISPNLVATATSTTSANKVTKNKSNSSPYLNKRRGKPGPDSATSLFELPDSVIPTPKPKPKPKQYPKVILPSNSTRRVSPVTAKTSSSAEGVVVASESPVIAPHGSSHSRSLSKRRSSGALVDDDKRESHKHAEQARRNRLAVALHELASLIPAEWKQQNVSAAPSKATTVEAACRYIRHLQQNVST
`AAATTACTAAGTTGTCACAGTACTTACCCCGTATGAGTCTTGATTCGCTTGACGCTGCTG` gave a fluorescence intensity of 3350 a.u.
For `TATCTAATCATTTTGCACGTCAAGATTCTCCTTAACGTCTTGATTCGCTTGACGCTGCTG`, the fluorescence intensity was 3910 a.u.
The fluorescence intensity of `AAATTACTAAGTTGGGGAGTGGGTGACGCCGTATGAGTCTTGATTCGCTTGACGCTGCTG` is reported as 4680 a.u.
The fluorescence intensity of `AAGACGGCACTATTCCATGTGACGGATTCCCATCTGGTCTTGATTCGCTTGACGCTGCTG` is reported as 6240 a.u.
`CTTCTGTAAATTTGTGAGGTGGGTGGACGCGCCCCGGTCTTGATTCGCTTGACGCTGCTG` has a fluorescence intensity of 4630 a.u.
`CTGTGCTGGTCAGCCCATGTGTCTGTCCCTGGCTGGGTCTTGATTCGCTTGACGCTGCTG` gave a fluorescence intensity of 9130 a.u.
`GTAATACAGAGGCTTCATGTGACGGGAGAAAGGAGAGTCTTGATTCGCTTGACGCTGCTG` gave a fluorescence intensity of 5040 a.u.
For `CGTAAGAAAGGCCATCACGTGTGGAGGGGAGAGCTCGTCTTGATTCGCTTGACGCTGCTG`, the fluorescence intensity was 11900 a.u.
`ATGTTCATGGAAAAGCACGTGCCACTCCACTTCCAAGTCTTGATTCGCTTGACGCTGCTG` has a fluorescence intensity of 20900 a.u.
The fluorescence intensity of `CATATGAATTTGCTCTTCTAGTAACTTTGTACACAGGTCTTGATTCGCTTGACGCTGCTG` is reported as 3470 a.u.
The fluorescence intensity of `CGGGGTTAAGTTTGCTGGGTGGGTGGCTTGCAGCAGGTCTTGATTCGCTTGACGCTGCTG` is reported as 4500 a.u.
`CGAACGTAGCTTCGTCACATGCTATGCTAGCAACTAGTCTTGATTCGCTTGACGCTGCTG` gave a fluorescence intensity of 7920 a.u.
`TTAGTCTGTAACCAACACGTGCAAAGGGTAAATAGAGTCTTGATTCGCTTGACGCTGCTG` gave a fluorescence intensity of 19000 a.u.
`GTCTTGTCTCATTGTCACTGTACTTTCCCCACTTCAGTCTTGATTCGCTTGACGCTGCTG` gave a fluorescence intensity of 4720 a.u.
The fluorescence intensity of `CTTTCCCGATCTTGGCTCGTGGGTGTAGCACATTTGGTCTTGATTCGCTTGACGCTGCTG` is reported as 12500 a.u.
With `TGCGCAACAACTTGAAGCGTGGGTGTATGTCTAGAAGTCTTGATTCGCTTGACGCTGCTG` the fluorescence intensity was 8860 a.u.
For `TTGTTCATGAGTGAACATGTGGAAGACGAAAAACCAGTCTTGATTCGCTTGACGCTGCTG`, the fluorescence intensity was 8050 a.u.
`GCTCCGTTATGTTCACTCGTGTTTCTGATACTGGATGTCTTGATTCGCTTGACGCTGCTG` gave a fluorescence intensity of 8480 a.u.
For `CGTTCTTAGCTGGTTCATGTGGATAAACATCTAAAGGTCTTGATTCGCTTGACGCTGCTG`, the fluorescence intensity was 5320 a.u.

Set 2 — technique: RNA Bind-n-Seq; molecule type: RNA; matrix: in vitro; tested at: 365 nM; baseline: no-protein control; direction: higher = stronger binding
Target: RNA binding protein fox-1 homolog 2, RRM domain, GST-SBP tag (RBFOX2, Homo sapiens, UniProt O43251-10, residues 100-194)
Setting: natural RNA segment, single round, ends assumed
Construct (chain): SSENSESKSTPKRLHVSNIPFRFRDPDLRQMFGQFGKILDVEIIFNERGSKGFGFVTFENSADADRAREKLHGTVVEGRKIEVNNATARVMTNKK
`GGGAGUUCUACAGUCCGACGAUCUUCACUGAGUAUCAAAACUGCCAAGAAGGGUAACUAAGGUUCCUAAACUGUAAGAUGAGCAGGAGAUGAUCACUGGGAGAGAAAGCAUACUGGAUUGAAGGAAGGGCUGUUGGAAUUCUCGGGUGCCAA`: “RBNS enrichment (R)” 0.587.
`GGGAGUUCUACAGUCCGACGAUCCCAGCCCUCAGCUGUCAUCCUUCCUGCCCUGCCCCUCUGUUUUAUCCUGGUGGGUCUUGCCUGUGACAGCAGACCCUCCAAACCUAAGAGCCACCAGCACUUCAGAGCCAUGGAAUUCUCGGGUGCCAA` — result for “RBNS enrichment (R)”: 0.482.
For `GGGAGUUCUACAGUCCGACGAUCAUUCGCAUGUUUAAUGUGACUUCCCCUCCCCGUCUGUGUUCUAACUUAUUUAUAAAAGGAUGAUGGCUGUAUUUUGAGUUUCUGCUGGAAACUUCCAUAAGGGGCAGCAGUGGAAUUCUCGGGUGCCAA`, “RBNS enrichment (R)” read 2.65.
Under “RBNS enrichment (R)”, `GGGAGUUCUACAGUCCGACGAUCAAGCCCUUCUGAUGAUUCCAAUGUGUUGGAAAGUUUACCUUGUCUCAGAUGUAACUGGUAAAGGCUGAUUUCUAAAUUUUCUGUAAUUGCAGCAACCUUUCUCUCCUGUCUGGAAUUCUCGGGUGCCAA` is recorded as 0.348.
Under “RBNS enrichment (R)”, `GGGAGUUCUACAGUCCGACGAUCAGUUUAUGUACAGGGAAAAGGAUUUUAUUAUCCUUAGGAAUGUCAUCCAAGACGUAGAGCUUGAAUGUGACGUUAUUUAAAAACAACAACAAAGAAGGCAGAGCCAGGAUUGGAAUUCUCGGGUGCCAA` is recorded as 0.619.
Under “RBNS enrichment (R)”, `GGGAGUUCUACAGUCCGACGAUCCCUGUGCCCAAUUUUGGAGUUUGAGAGGGUUGUUGGUAAUAAAUGUAUGAUGUACACUUCAAACCUAGUCGUGUUUCAUGUAAGGCGUGUUUUUGGAAUCUGUUUGCAGAUGGAAUUCUCGGGUGCCAA` is recorded as 1.1.
`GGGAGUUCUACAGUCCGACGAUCUAUCAGGAACUUGAGCAUCUGCAGAUAUUGGUAUCGGAGGGCGGUCCUGGAACCAAGCAUCCACGGAUACUGAGGGGUGACAUUUCAUGAAGUGUAGAUCAUUGUAUUCAUGGAAUUCUCGGGUGCCAA`: “RBNS enrichment (R)” 0.532.
`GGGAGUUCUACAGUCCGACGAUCUGGCAGUUGCACCUGACCUUCAUUUCUUCUCAAAUUUGACCAGUUCAAGAGACUCGUAGAUGACUUUGCCUCCACAGCCGAUUUCCUCAUCAUUUACAUUGAAGAAGCUCUGGAAUUCUCGGGUGCCAA`: “RBNS enrichment (R)” 0.476.

Set 3 — technique: protein binding microarray; molecule type: double-stranded DNA, one strand shown; matrix: in vitro; tested at: not given; baseline: not given; direction: higher = stronger binding
Target: Histone acetyltransferase KAT6A, winged helix 1, GST fusion (KAT6A, Homo sapiens, UniProt Q92794, residues 1-85)
Setting: 8-mer, flanks averaged, mean of 2 arrays, mostly near background
Target sequence (chain): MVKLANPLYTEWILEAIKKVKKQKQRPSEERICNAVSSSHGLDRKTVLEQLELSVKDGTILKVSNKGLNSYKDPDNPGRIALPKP
For `ACAGAGAG`, the E-score was -0.2.
With `CGTATTAC` the E-score was 0.15.
`AACCTGTA` has an E-score of -0.181.
The E-score of `CGCTCTTC` is reported as 0.152.
With `AGAGACCG` the E-score was 0.0915.
For `CCAGAGCA`, the E-score was -0.223.
`AAGCAACA` has an E-score of -0.178.
`AGAGAATC` has an E-score of -0.114.
The E-score of `ACATGAGA` is reported as -0.0753.
`GGATGACA` gave an E-score of -0.0214.
The E-score of `AGGCTCTG` is reported as -0.186.
`AATCGAGA` has an E-score of -0.128.
`GAGCCAAC` gave an E-score of -0.205.
For `AGGCAAAC`, the E-score was -0.15.
For `GTTATCAA`, the E-score was -0.144.
For `CCAGCGGA`, the E-score was 0.204.
The E-score of `CCTTTAGA` is reported as -0.157.
`AGCGGTAT` has an E-score of 0.289.
`CTCGGTAA` has an E-score of -0.0425.
The E-score of `CGCGTACG` is reported as 0.419.
`CAGGTGAA` gave an E-score of -0.234.
`CAGCACTG` has an E-score of -0.0375.

Set 4 — technique: aptamer microarray, sandwich; molecule type: DNA with 2'F-ANA; matrix: in vitro; tested at: 200 nM; with: Cy3 exosite-II aptamer, 400 nM; direction: higher = stronger binding; sequence: GGTTGGTGTGGTTGG
Target: Prothrombin, mature alpha-thrombin (F2, Homo sapiens, UniProt P00734)
Setting: whole 15-mer aptamer, many near background
Under “mean fluorescence intensity”, `2'F-ANA at 6 8 14` is recorded as 189 a.u.
`2'F-ANA at 1 2 4 5 7 9 10 12 13 14`: “mean fluorescence intensity” 49.2 a.u.
Under “mean fluorescence intensity”, `2'F-ANA at 3 4 11 13` is recorded as 635 a.u.
Under “mean fluorescence intensity”, `2'F-ANA at 2 5 6 10 12 15` is recorded as 49.5 a.u.
Under “mean fluorescence intensity”, `2'F-ANA at 2 4 10 11 12 13 15` is recorded as 106 a.u.
`2'F-ANA at 9 10 12 14` — result for “mean fluorescence intensity”: 121 a.u.
`2'F-ANA at 3 4 11 12 14`: “mean fluorescence intensity” 404 a.u.
`2'F-ANA at 1 2 3 4 5 6 7 9 13 14`: “mean fluorescence intensity” 49.1 a.u.
`2'F-ANA at 8 9 10 11 14`: “mean fluorescence intensity” 109 a.u.
For `2'F-ANA at 1 5 6 9 15`, “mean fluorescence intensity” read 62.5 a.u.
`2'F-ANA at 1 2 3 5 6 8 10 11 12 13 15`: “mean fluorescence intensity” 82.8 a.u.
Under “mean fluorescence intensity”, `2'F-ANA at 1 7 8 10 11 14 15` is recorded as 47.1 a.u.
For `2'F-ANA at 2 12 13 15`, “mean fluorescence intensity” read 615 a.u.
`2'F-ANA at 1 2 3 5 7 8 13 14` — result for “mean fluorescence intensity”: 49.7 a.u.
`2'F-ANA at 1 4 5 6 7 8 9 10 11 13`: “mean fluorescence intensity” 61.2 a.u.
Under “mean fluorescence intensity”, `2'F-ANA at 1 2 3 4 6 8 9 11 15` is recorded as 147 a.u.
`2'F-ANA at 1 2 3 5 6 7 9 11 12 14 15`: “mean fluorescence intensity” 54.2 a.u.
For `2'F-ANA at 2 3 7 10 11`, “mean fluorescence intensity” read 458 a.u.
`2'F-ANA at 2 4 5 6 7 9 10 11 12 13 14` — result for “mean fluorescence intensity”: 53.5 a.u.
`2'F-ANA at 2 4 5 8 9 10 14 15` — result for “mean fluorescence intensity”: 79.5 a.u.
`2'F-ANA at 2 5 6 7 13 15`: “mean fluorescence intensity” 51.1 a.u.
Under “mean fluorescence intensity”, `2'F-ANA at 1 3 6 7 9 10 11` is recorded as 73.5 a.u.
`2'F-ANA at 3 5 7 12 14 15`: “mean fluorescence intensity” 72.9 a.u.
`2'F-ANA at 2 3 4 13`: “mean fluorescence intensity” 487 a.u.
`2'F-ANA at 1 3 6 8 10 11 13` — result for “mean fluorescence intensity”: 76.9 a.u.

Repeated from above (set 4):
`2'F-ANA at 1 2 3 5 7 8 13 14` — result for “mean fluorescence intensity”: 49.7 a.u.
`2'F-ANA at 1 4 5 6 7 8 9 10 11 13`: “mean fluorescence intensity” 61.2 a.u.
Under “mean fluorescence intensity”, `2'F-ANA at 1 2 3 4 6 8 9 11 15` is recorded as 147 a.u.
`2'F-ANA at 1 2 3 5 6 7 9 11 12 14 15`: “mean fluorescence intensity” 54.2 a.u.
For `2'F-ANA at 2 3 7 10 11`, “mean fluorescence intensity” read 458 a.u.
`2'F-ANA at 2 4 5 6 7 9 10 11 12 13 14` — result for “mean fluorescence intensity”: 53.5 a.u.
`2'F-ANA at 2 4 5 8 9 10 14 15` — result for “mean fluorescence intensity”: 79.5 a.u.
`2'F-ANA at 2 5 6 7 13 15`: “mean fluorescence intensity” 51.1 a.u.
Under “mean fluorescence intensity”, `2'F-ANA at 1 3 6 7 9 10 11` is recorded as 73.5 a.u.
`2'F-ANA at 3 5 7 12 14 15`: “mean fluorescence intensity” 72.9 a.u.
`2'F-ANA at 2 3 4 13`: “mean fluorescence intensity” 487 a.u.
